Measured values pooled from the literature.
Lines come from different studies, so protocols differ. Numbers after ± are the reported error.
Isochorismatase domain-containing protein 1: Isochorismatase domain-containing protein 1 (Homo sapiens, UniProt Q96CN7)
Chain of UniProt Q96CN7 (whole entry, looked up): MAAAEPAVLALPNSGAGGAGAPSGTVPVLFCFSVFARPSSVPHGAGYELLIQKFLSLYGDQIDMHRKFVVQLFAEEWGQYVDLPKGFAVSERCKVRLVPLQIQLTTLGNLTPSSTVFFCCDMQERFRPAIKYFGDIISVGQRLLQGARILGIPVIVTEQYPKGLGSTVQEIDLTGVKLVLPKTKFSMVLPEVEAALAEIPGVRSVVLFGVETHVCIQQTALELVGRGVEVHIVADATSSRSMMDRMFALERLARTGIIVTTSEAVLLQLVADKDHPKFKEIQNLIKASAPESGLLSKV
Chain of UniProt Q15391 (whole entry, looked up): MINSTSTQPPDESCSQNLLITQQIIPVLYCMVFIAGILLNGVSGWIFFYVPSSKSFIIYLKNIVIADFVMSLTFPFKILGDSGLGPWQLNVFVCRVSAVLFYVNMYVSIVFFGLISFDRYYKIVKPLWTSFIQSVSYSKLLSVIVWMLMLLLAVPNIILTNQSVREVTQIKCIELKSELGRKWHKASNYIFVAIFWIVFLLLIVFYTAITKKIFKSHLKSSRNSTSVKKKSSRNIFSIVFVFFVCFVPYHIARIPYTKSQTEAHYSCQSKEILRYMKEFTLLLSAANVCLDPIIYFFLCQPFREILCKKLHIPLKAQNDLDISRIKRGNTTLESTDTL
Chain of UniProt P30988 (whole entry, looked up): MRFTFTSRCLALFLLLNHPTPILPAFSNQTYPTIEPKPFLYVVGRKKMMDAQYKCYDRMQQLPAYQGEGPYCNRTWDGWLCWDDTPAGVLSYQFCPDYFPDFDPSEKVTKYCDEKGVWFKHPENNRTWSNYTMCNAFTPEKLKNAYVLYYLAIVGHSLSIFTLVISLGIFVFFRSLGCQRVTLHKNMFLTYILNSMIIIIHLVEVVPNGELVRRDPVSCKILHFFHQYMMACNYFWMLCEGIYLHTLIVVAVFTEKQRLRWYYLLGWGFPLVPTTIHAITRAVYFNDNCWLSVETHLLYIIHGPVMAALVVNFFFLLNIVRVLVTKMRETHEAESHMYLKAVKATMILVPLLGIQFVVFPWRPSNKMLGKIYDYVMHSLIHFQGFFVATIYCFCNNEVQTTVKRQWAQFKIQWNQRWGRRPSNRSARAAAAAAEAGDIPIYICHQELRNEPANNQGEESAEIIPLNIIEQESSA
Chain of UniProt Q92529 (whole entry, looked up): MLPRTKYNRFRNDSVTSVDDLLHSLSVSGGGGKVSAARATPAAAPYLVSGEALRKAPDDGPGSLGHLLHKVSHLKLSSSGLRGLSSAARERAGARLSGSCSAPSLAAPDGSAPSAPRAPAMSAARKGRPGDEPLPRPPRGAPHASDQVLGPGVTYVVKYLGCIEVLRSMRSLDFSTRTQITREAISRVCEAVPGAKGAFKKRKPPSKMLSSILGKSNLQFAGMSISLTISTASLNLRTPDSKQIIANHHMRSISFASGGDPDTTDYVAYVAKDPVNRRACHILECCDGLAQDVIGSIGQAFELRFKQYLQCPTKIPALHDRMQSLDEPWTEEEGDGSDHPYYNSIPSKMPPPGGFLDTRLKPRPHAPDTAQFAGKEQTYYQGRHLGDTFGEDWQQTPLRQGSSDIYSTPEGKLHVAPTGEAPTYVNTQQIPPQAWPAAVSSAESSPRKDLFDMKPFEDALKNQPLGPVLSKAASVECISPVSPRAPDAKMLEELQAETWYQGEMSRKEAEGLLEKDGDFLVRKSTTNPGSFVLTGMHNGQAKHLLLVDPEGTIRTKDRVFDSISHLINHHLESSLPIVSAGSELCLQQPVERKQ
Chain of UniProt P07339 (whole entry, looked up): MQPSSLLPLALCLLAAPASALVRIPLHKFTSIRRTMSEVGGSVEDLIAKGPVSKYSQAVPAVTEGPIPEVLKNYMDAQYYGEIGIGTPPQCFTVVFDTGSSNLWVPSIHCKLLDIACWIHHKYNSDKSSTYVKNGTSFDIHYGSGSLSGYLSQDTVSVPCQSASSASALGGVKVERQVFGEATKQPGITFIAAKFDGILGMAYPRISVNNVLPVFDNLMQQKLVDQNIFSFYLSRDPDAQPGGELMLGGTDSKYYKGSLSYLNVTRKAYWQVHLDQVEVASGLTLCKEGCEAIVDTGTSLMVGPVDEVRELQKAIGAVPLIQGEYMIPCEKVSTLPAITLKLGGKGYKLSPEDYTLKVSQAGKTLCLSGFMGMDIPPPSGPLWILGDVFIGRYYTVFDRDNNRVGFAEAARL
Chain of UniProt O60895 (whole entry, looked up): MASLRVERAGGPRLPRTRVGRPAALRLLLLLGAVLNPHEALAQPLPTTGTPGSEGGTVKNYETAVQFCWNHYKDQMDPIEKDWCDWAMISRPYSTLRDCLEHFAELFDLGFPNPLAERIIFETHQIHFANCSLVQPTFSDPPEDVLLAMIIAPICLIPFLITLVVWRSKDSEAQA
Chain of UniProt P12710 (whole entry, looked up): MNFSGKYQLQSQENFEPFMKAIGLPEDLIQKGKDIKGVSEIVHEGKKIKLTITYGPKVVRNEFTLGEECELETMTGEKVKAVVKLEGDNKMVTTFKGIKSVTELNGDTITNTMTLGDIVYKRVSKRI
Chain of UniProt P52003 (whole entry, looked up): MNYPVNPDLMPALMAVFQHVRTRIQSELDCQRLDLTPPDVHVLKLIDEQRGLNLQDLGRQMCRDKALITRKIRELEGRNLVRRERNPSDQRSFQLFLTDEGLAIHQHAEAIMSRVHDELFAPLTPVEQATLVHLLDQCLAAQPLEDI
Chain of UniProt P02749 (whole entry, unmodified, looked up): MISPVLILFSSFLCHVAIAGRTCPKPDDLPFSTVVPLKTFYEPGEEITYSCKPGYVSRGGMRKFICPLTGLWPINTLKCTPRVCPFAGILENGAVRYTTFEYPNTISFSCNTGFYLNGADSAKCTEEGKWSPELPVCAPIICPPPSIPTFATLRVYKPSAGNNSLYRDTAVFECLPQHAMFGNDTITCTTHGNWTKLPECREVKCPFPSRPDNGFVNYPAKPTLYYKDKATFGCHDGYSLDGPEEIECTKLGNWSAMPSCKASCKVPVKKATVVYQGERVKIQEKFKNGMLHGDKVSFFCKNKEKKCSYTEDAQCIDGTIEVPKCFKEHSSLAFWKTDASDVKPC
Chain of UniProt P31641 (whole entry, unmodified, looked up): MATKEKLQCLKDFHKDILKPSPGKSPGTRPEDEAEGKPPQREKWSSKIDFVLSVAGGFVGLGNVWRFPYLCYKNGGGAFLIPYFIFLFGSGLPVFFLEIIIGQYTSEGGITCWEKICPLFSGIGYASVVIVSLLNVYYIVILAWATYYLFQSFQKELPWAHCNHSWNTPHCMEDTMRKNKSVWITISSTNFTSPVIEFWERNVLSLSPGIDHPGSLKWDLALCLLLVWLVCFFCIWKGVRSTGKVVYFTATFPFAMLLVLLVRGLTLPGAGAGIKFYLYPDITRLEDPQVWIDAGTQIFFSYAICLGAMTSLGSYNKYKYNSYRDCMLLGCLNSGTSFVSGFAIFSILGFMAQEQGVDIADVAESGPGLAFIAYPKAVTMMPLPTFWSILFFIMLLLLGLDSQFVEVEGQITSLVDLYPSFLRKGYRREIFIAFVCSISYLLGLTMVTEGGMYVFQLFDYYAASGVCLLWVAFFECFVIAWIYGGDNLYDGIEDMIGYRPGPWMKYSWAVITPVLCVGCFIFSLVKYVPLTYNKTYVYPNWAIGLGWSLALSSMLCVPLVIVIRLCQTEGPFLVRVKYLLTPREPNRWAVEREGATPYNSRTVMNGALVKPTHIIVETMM
Chain of UniProt P40261 (whole entry, looked up): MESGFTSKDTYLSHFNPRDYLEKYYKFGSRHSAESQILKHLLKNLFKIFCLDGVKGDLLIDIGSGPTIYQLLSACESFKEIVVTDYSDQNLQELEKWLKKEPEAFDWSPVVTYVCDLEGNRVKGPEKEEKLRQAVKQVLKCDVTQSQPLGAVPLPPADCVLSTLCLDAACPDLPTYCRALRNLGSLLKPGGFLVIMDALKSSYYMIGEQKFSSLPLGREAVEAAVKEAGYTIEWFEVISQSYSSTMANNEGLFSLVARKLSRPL
Chain of UniProt Q14145 (whole entry, unmodified, looked up): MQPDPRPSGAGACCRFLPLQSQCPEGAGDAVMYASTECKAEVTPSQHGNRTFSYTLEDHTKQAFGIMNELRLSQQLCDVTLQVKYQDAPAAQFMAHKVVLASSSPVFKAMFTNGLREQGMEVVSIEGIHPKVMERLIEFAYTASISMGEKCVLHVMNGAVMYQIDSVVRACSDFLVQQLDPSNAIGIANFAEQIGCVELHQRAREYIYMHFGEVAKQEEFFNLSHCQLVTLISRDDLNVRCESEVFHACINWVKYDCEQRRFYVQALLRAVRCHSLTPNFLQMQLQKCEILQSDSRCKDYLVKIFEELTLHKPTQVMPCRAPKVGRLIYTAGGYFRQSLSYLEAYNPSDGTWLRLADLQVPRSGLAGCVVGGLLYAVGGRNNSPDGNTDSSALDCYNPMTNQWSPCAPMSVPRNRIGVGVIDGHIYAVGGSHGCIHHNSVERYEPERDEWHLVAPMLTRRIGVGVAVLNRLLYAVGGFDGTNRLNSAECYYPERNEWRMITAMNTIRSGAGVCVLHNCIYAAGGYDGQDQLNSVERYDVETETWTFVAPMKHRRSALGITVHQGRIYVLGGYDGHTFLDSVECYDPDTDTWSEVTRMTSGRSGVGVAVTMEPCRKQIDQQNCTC
Chain of UniProt Q12805 (whole entry, looked up): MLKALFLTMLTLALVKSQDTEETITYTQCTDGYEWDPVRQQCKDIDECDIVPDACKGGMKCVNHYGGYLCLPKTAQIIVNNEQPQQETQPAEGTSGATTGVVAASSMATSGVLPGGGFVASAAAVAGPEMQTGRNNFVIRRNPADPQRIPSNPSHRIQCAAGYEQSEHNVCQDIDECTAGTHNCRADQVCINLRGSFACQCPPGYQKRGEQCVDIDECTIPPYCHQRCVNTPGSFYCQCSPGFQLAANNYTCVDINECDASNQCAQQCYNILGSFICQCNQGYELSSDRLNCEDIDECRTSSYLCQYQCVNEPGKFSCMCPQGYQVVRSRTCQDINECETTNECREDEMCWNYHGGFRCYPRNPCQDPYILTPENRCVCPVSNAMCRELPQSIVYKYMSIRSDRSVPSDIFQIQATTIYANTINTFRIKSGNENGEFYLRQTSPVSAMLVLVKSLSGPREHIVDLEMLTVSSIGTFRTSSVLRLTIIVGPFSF

`COc1c(O)c(C)cc2c1C(=O)c1c(ccc(O)c1O)C2=O` gave a viability of 81.5 ± 5.05% (HK-2 co-cultured with HepaRG; MTT; 66.67 µM, 48 h; reference: untreated control).
`CN(C)Cc1c(C(=O)NCCOc2ccc(C(=O)NO)cc2)oc2ccccc12` gave a Kd of > 30.2 µM (Isochorismatase domain-containing protein 1; inhibitor, competition pulldown; SW620 and MV4-11 lysate; 1 h).
With `CC(C)C[C@H](NC(=O)[C@H](CCC(=O)O)NC(=O)[C@H](CCC(N)=O)NC(=O)[C@H](CO)NC(=O)CCCCCNC(=S)Nc1ccc2c(c1)C(=O)OC21c2ccc(O)cc2Oc2cc(O)ccc21)C(=O)N[C@@H](Cc1c[nH]cn1)C(=O)N[C@@H](CCCCN)C(=O)N[C@@H](CC(C)C)C(=O)N[C@@H](CCC(N)=O)C(=O)N[C@H](C(=O)N[C@@H](Cc1ccc(O)cc1)C(=O)N1CCC[C@H]1C(=O)N[C@@H](CCCNC(=N)N)C(=O)N[C@H](C(=O)N[C@@H](CC(N)=O)C(=O)N[C@H](C(=O)NCC(=O)N[C@@H](CO)C(=O)NCC(=O)N[C@H](C(=O)N1CCC[C@H]1C(N)=O)[C@@H](C)O)[C@@H](C)O)[C@@H](C)O)[C@@H](C)O` the Kd was 1.7 µM (Amylin receptor AMY2; CALCR/RAMP2, extracellular domains (Homo sapiens, UniProt O60895+P30988); peptide binding, fluorescence polarization; pH 7.4, MBP-CTR ECD with 100 µM RAMP2 ECD).
`Nc1ncnc2c1ncn2[C@@H]1O[C@H](COP(=O)(O)OP(=O)(O)NP(=O)(O)O)[C@@H](O)[C@H]1O` gave a Kd of 12 µM (Cell cycle histidine kinase CckA, CA domain (Caulobacter vibrioides, UniProt Q9X688); isothermal titration calorimetry; Caulobacter crescentus; 12 °C, with: without c-di-GMP).
`CCOc1ccc(C(=O)CC(SCc2ccc(Cl)cc2)C(=O)O)cc1` (centres unmarked) gave a Kd of 18.1 µM (Pleckstrin homology domain-containing family A member 4, PH domain (PLEKHA4, Homo sapiens, UniProt Q9H4M7); binding, ITC; 25 °C, racemic compound).
For `CC[C@H](C)[C@H](NC(=O)[C@H](CC(C)C)NC(=O)[C@H](Cc1ccc(OP(=O)(O)O)cc1)NC(=O)[C@H](CCC(=O)O)NC(=O)[C@H](CC(=O)O)NC(=O)[C@H](C)NC(=O)[C@H](CC(=O)O)NC(=O)[C@@H](NC(=O)[C@@H](NC(=O)[C@H](CC(=O)O)NC(=O)[C@H](CC(=O)O)NC(=O)[C@H](CCSC)NC(=O)c1ccc2c(c1)C(=O)OC21c2ccc(N(C)C)cc2Oc2cc(N(C)C)ccc21)C(C)C)C(C)C)C(=O)N1CCC[C@H]1C(=O)N[C@@H](CCC(N)=O)C(=O)N[C@@H](CCC(N)=O)C(=O)NCC(=O)N[C@@H](Cc1ccccc1)C(=O)N[C@@H](CC(=O)O)C(=O)O`, the Kd was 0.216 µM (SHC-transforming protein 3, SH2 domain (SHC3, Homo sapiens, UniProt Q92529); binding).
`CC1=C[C@H](O)CC(C)(C)[C@H]1/C=C/C(C)=C/C=C/C(C)=C/C=C/C=C(C)/C=C/C=C(C)/C=C/C1=C(C)C[C@@H](O)CC1(C)C` gave a Kd of 4810 µM (Beta-lactoglobulin (LGB, Bos taurus, UniProt P02754); binding, fluorescence quenching; PBS; 30 min, 308 K).
`N=C(N)NCCC[C@H](N)C(=O)O` has a Kd of ~24000 µM (acetylcholine receptor, Rana temporaria; channel block, voltage clamp fluctuation; endplate; reduced Na+ mixture).
For `CO[C@@H]1[C@@H](OC(N)=O)[C@@H](O)[C@H](Oc2ccc3c(O)c(NC(=O)c4ccc(O)c(CC=C(C)C)c4)c(=O)oc3c2C)OC1(C)C`, the Kd was 56.7 µM (Multidrug resistance operon repressor (mexR, Pseudomonas aeruginosa, UniProt P52003); microscale thermophoresis).
With `Cc1[nH]c2ccccc2c1CCNCc1ccc(/C=C/C(=O)NO)cc1` the Kd was > 30.2 µM (Isochorismatase domain-containing protein 1; inhibitor, competition pulldown; SW620 and MV4-11 lysate; 1 h).
The Kd of `CCCN1CCN(c2ccc(-c3cncc(Cl)c3N3CCC4(CCNC4=O)CC3)cc2)CC1` is reported as 0.008 µM (MED11 human; SILAC competition; LS174T-L5 lysate).
`NCCCC(=O)O` — result for Kd: “no binding” (Sodium- and chloride-dependent taurine transporter (SLC6A6, Homo sapiens, UniProt P31641, Y138A); microscale thermophoresis; Y138A mutant).
`O=C(CCCCCCNC(=O)c1cnc(N(c2ccccc2)c2ccccc2Cl)nc1)NO` has a Kd of > 30.2 µM (Isochorismatase domain-containing protein 1; inhibitor, competition pulldown; SW620 and MV4-11 lysate; 1 h).
`CCCCC/C=C\C/C=C\CCCCCCCC(=O)O` has a Kd of 0.00355 ± 0.0019 µM (5-lipoxygenase (Eriocheir sinensis); binding, microscale thermophoresis; 25 °C).
`O=C1c2cccc(O)c2C(=O)c2c(O)cc(CO)cc21` has a viability of 84 ± 2.89% (HK-2 co-cultured with HepaRG; MTT; 16.67 µM, 48 h; reference: untreated control).
For `C=CC(=O)N1CCN(c2nc(OC[C@@H]3CCCN3C)nc3c(F)c(-c4nc(N)cc(C)c4C(F)(F)F)c(Cl)cc23)[C@@H](C)C1`, the Kd was 16.5 ± 0.57 µM (GTPase KRas, GDP-bound (KRAS, Homo sapiens, UniProt P01116, G12D); binding, surface plasmon resonance).
The Kd of `CC(=O)N([O-])CCCCCNC(=O)CCC(=O)N([O-])CCCCCNC(=O)CCC(=O)N([O-])CCCCCN.[Fe+3]` is reported as ~1 µM (uncharacterized protein (Bordetella pertussis, UniProt Q7VXW9); siderophore binding, fluorescence quenching titration; pH 6.5, room temperature, 100 mM NaCl, with: ferric siderophore).
With `Cn1cc(CNCC2CCN(c3ncc(C(=O)NO)cn3)CC2)c2ccccc21` the Kd was > 30.2 µM (Isochorismatase domain-containing protein 1; inhibitor, competition pulldown; SW620 and MV4-11 lysate; 1 h).
The Kd of `CC(C)CC(=O)N[C@H](C(=O)N[C@H](C(=O)N[C@@H](CC(C)C)[C@@H](O)CC(=O)N[C@@H](C)C(=O)N[C@@H](CC(C)C)[C@@H](O)CC(=O)NCCCC[C@H](NC(=O)CCOCCOCCNC(=O)CN1CCN(CC(=O)O)CCN(CC(=O)O)CC1)C(=O)O)C(C)C)C(C)C` is reported as 0.645 µM (Cathepsin D (CTSD, Homo sapiens, UniProt P07339); binding, surface plasmon resonance).
For `NC(=O)c1cccnc1`, the Kd was 31.6 µM (Nicotinamide N-methyltransferase, SAM-bound (NNMT, Homo sapiens, UniProt P40261); substrate, SPR; 20 °C, with: SAM).
With `CC(C)(Oc1ccc(C(=O)c2ccc(Cl)cc2)cc1)C(=O)O` the Kd was 44 ± 5 µM (Fatty acid-binding protein, liver (Mus musculus, UniProt P12710); binding, native mass spectrometry; mouse liver tissue).
`CC(C)(COP(=O)(O)OP(=O)(O)OC[C@H]1O[C@@H](n2cnc3c(N)ncnc32)[C@H](O)[C@@H]1OP(=O)(O)O)[C@@H](O)C(=O)NCCC(=O)NCCS` gave a Kd of 2.09 µM (N-alpha-acetyltransferase 15, NatA auxiliary subunit (Homo sapiens, UniProt Q9BXJ9); competitor, competition MS pulldown; SW-620 cell lysate; with: photo-immobilized beads).
The tissue uptake of `CC(C)C[C@H](NC(=O)C[C@H](O)[C@H](CC(C)C)NC(=O)[C@H](Cc1c[nH]cn1)NC(=O)CNC(=O)[C@@H](NC(=O)[C@H](C)NC(=O)[C@H](Cc1c[nH]c2ccccc12)NC(=O)[C@H](CCC(N)=O)NC(=O)[C@@H](Cc1ccccc1)NC(=O)COCCOCCNC(=O)CCC(C(=O)O)N1CCN(CC(=O)O)CCN(CC(=O)O)CCN(CC(=O)O)CC1)C(C)C)C(N)=O` (some centres unmarked) [lutetium-177 labelled] is reported as 0.4 ± 0.1 %ID/g (BALB/c nu/nu mice, blood; intravenous, 250 pmol, 1 h, with: PA 300 µg).
`CN1CCN(c2ccc(Nc3ncc4cc(C#N)c(=O)n(C5CCCC5)c4n3)cc2)CC1` has an IC50 of 2.53 µM (Mitogen-activated protein kinase kinase kinase 2 (MAP3K2, Homo sapiens, UniProt Q9Y2U5)).
For `Cc1cc2nc3c(=O)[nH]c(=O)nc-3n(C[C@H](O)[C@H](O)[C@H](O)COP(=O)(O)OP(=O)(O)OC[C@H]3O[C@@H](n4cnc5c(N)ncnc54)[C@H](O)[C@@H]3O)c2cc1C`, the Kd was 68.5 µM (EGF-containing fibulin-like extracellular matrix protein 1 (EFEMP1, Homo sapiens, UniProt Q12805); binding, MS pulldown competition; SW-620 cell lysate).
The Kd of `O=C(COc1ccc(C2=[N+]3C(=Cc4ccc(-c5cccs5)n4[B-]3(F)F)C=C2)cc1)NCCCCCNC(=O)[C@H]1O[C@H](OP(=O)(O)OP(=O)(O)OCC2OC(n3ccc(=O)[nH]c3=O)C(O)C2O)[C@H](O)[C@@H](O)[C@@H]1O` (some centres unmarked) is reported as 0.0305 ± 0.0144 µM (P2Y purinoceptor 14 (P2RY14, Homo sapiens, UniProt Q15391); binding, agonist, NanoBRET whole cell; HEK293).
`O=c1c(O)c(-c2ccc(O)c(O)c2)oc2cc(O)cc(O)c12` has a Kd of 0.32 ± 0.069 µM (Small ribosomal subunit protein uS2 (RPSA, Homo sapiens, UniProt P08865); binding, tryptophan fluorescence quenching).
`CCN(CC)Cc1ccc2cc(COC(=O)Nc3ccc(C(=O)NO)cc3)ccc2c1` gave a Kd of > 30.2 µM (Isochorismatase domain-containing protein 1; inhibitor, competition pulldown; SW620 and MV4-11 lysate; 1 h).
`CO[C@H]1O[C@H](COS(=O)(=O)O)[C@@H](O[C@@H]2O[C@@H](C(=O)O)[C@@H](O[C@H]3O[C@H](COS(=O)(=O)O)[C@@H](O[C@@H]4O[C@H](C(=O)O)[C@@H](O[C@H]5O[C@H](COS(=O)(=O)O)[C@@H](O)[C@H](O)[C@H]5NS(=O)(=O)O)[C@H](O)[C@H]4O)[C@H](OS(=O)(=O)O)[C@H]3NS(=O)(=O)O)[C@H](O)[C@H]2OS(=O)(=O)O)[C@H](O)[C@H]1NS(=O)(=O)O` has a Kd of 10 µM (Beta-2-glycoprotein 1, domain V (APOH, Homo sapiens, UniProt P02749, M290L/V266L); tryptophan fluorescence titration; pH 7.0, 100 mM NaCl).
With `CCCCN(Cc1ccc(C(=O)NO)cc1)C(=O)Nc1ccccc1` the Kd was > 30.2 µM (Isochorismatase domain-containing protein 1; inhibitor, competition pulldown; SW620 and MV4-11 lysate; 1 h).
With `CCCN1CCN(c2cccc(-c3cnccc3N3CCCC4(CCNC4=O)C3)c2)CC1` (centres unmarked) the Kd was 0.608 µM (LACTB (Homo sapiens, UniProt P83111); SILAC displacement; LS174T-L5 cell lysate).
With `C#Cc1cccc(Nc2ncnc3cc(OC)c(OCCCCCCC(=O)NO)cc23)c1` the Kd was > 30.2 µM (Isochorismatase domain-containing protein 1; inhibitor, competition pulldown; SW620 and MV4-11 lysate; 1 h).
For `CCCCCCCCCCCCCCCC(=O)OC[C@H](COP(=O)(O)O[C@@H]1[C@H](O)[C@H](O)[C@@H](OP(=O)(O)O)[C@H](OP(=O)(O)O)[C@H]1O)OC(=O)CCCCCCCCCCCCCCC`, the Kd was 0.078 ± 0.024 µM (TUT1 (Homo sapiens, UniProt Q9H6E5); binding, microscale thermophoresis; lipid micelles, with: 5 nM labelled Star-PAP).
For `Nc1ccccc1NC(=O)c1ccc(CNc2nccc(-c3cccnc3)n2)cc1`, the Kd was > 30.2 µM (Isochorismatase domain-containing protein 1; inhibitor, competition pulldown; SW620 and MV4-11 lysate; 1 h).
The Kd of `C=CS(=O)(=O)c1ccc(Nc2nc(OCC3CCCCC3)c3nc[nH]c3n2)cc1` is reported as 1.79 µM (Kelch-like ECH-associated protein 1, Kelch domain C489A (KEAP1, Homo sapiens, UniProt Q14145, C489A); binding).
